Results of several laboratories.
Lines come from different studies, so protocols differ. ± marks the error that the study gave.

SMILES | cell line | assay | setting | how to read | measurement | result
CS(C)=O.CS(C)=O.[Cl][Cu][Cl].c1ccc(-c2nnc(-c3ccc4c(c3)OCO4)[nH]2)nc1 | T24 | PI flow cytometry | 5.3 µM, 24 h |  | cells in G2/M phase | 34.8%
COc1cc(CNC(=O)C[C@H](C)CCC=C(C)C)ccc1OCc1cn(-c2ccc(Br)cc2)nn1 | COLO 205 | SRB | 10 µM, 48 h |  | growth percent | 113%
CC(=O)N[C@H](C(=O)N[C@H](C(=O)N[C@@H](CCCNC(=N)N)C(=O)N1Cc2ccccc2C[C@H]1C(=O)N[C@@H](Cc1ccccc1)C(N)=O)C1CCCCC1)C(C)C | BC-3 T cells | inhibitor, CFSE dilution | concentration not given, 5 days, added: anti-CD3 antibody or PHA |  | T cell proliferation | no inhibition
CCN(CC)CC(=O)Nc1cccc(-n2cc(-c3ccc4ccc(-c5cn(-c6cccc(NC(=O)CN(CC)CC)c6)nn5)cc4c3)nn2)c1 | 786-0 cells | Western blot | 10 x IC50, 4 h, hypoxia | baseline: untreated | HIF-2α protein level | 37%
NS(=O)(=O)c1ccc(-n2cc(Cn3c(=O)c(Cc4ccccc4)nc4ccccc43)nn2)cc1 | HCT-116 | qRT-PCR, item: BCL-2 | concentration not given, 72 h | baseline: untreated | mRNA level | 0.347 ± 0.013 fold
COc1cc(CNC(=O)C[C@H](C)CCC=C(C)C)ccc1OCc1cn(-c2ccccc2Cl)nn1 | UO-31 | SRB | 10 µM, 48 h |  | growth percent | 30.3%
COc1cc2c(C=C3C(=O)Nc4ccccc43)c[nH]c2cc1C | prostate cancer subpanel of NCI-60 |  | 48 h |  | TGI | 12.9 µM
COc1cc(CNC(=O)C[C@H](C)CCC=C(C)C)ccc1OCc1cn(-c2ccc(Cl)c(Cl)c2)nn1 | NCI/ADR-RES | SRB | 10 µM, 48 h |  | growth | 36.5%
COc1cc(OC)cc([C@@H]2C[C@H](C)OC(=O)c3c(Sc4ccccc4)c4ccccn4c32)c1 (relative stereo) | MCF-10A | resazurin |  | baseline: CC50 MCF-10A over IC50 MDA-MB-231 | selectivity ratio | 48
COc1cc(CNC(=O)C[C@H](C)CCC=C(C)C)ccc1OCc1cn(-c2ccc(F)cc2)nn1 | NCI-H522 | SRB | 10 µM, 48 h |  | growth percent | 66.4%
O=C(N1CCCC1)n1cc(-c2ccc(-c3ccccc3)cc2)nn1 | mouse T-cells | N-terminal labeled proteins, N-terminal enrichment proteomics, item: CCDC97 | 1 nM, 6 h | baseline: DMSO | SILAC ratio | 1.26 ± 0.16
O=Cc1c(O)ccc2ccccc12 | HUVEC | RNA sequencing, item: ADM2 | 75 µM, 24 h | baseline: DMSO | log2 fold change | 5
COc1cc(CNC(=O)C[C@H](C)CCC=C(C)C)ccc1OCc1cn(-c2ccc(C#N)cc2)nn1 | NCI-H522 | SRB | 10 µM, 48 h |  | growth percent | 63.5%
CC(=O)c1c(C)c2cnc(Nc3ccc(N4CCNCC4)cn3)nc2n(C2CCCC2)c1=O | recombinant CHO cell line | perfused bench bioreactor | 10 µM, day 15, added at day 8 |  | specific productivity | 40 to 45 pg/cell/day
O=C(Cn1c(=O)c(Cc2ccccc2)nc2ccccc21)NN1C(=O)c2ccccc2C1=O | HCT-116 | qRT-PCR, item: p21 | concentration not given, 72 h | baseline: untreated | mRNA level | 2.21 ± 0.082 fold
Cc1c(C)c(C)[c-](C)c1C.[C-]#[O+].[C-]#[O+].[C-]#[O+].[Cl-].[Cl-].[Cl-].[Ir+3].[Re+].c1cnc(-c2ncccn2)nc1 | MDA-MB-468 | DCFDA flow cytometry | 50 µM |  | ROS-positive cells | 73%
COc1ccc2c(c1)/C(=N\Nc1nnc3n1N=C(c1ccccc1)CS3)C(=O)N2 | OVCAR-4 | cell growth or viability, SRB | 10 µM |  | inhibition | 21%
N=C(N)NCCC[C@H](NC(=O)[C@H](Cc1c[nH]c2ccccc12)NC(=O)[C@H](CCC(N)=O)NC(=O)[C@H](Cc1c[nH]c2ccccc12)NC(=O)[C@H](CCCNC(=N)N)NC(=O)[C@H](Cc1c[nH]c2ccccc12)NC(=O)[C@H](CCC(N)=O)NC(=O)[C@H](Cc1c[nH]c2ccccc12)NC(=O)[C@@H](N)CCCNC(=N)N)C(N)=O | young human fibroblasts primary | MTT | concentration not given, 48 h, 37 °C, 5% FBS | baseline: untreated cells | viability | 92 ± 2%
CC(C)c1cccc(C(C)C)c1-n1c2c([n+](-c3c(C(C)C)cccc3C(C)C)[c]1[Au-][Cl])-c1cccc3cccc-2c13 | human cancer cell lines | MTT | average over cell lines | baseline: compound over cisplatin | IC50 ratio | ~2 fold
Cc1sc2ncn(CC(=O)N3CCCC3)c(=O)c2c1-c1cccc(Br)c1 | mouse cultured cortical neurons | item: intracellular Ca2+ | 50 µM, added: A23187 10 µM |  | calcium signal increase | no effect
CO[C@H]1O[C@H](COC(c2ccccc2)(c2ccccc2)c2ccccc2)[C@@H](OS(=O)(=O)c2ccccc2)[C@H](OS(=O)(=O)c2ccccc2)[C@H]1OS(=O)(=O)c1ccccc1 | Ehrlich | cell growth or viability, MTT | 31.25 µg/mL, 24 h |  | inhibition | 2.22%
COc1cc(CNC(=O)C[C@H](C)CCC=C(C)C)ccc1OCc1cn(-c2ccccc2)nn1 | NCI-H522 | SRB | 10 µM, 48 h |  | growth percent | 85.5%
CCCCCCCCCCCCCCCOC(=O)/C=C/c1cc(O)c(O)c(OC)c1 | MDA-MB-231 | AO-PI flow cytometry | IC50, 24 h |  | late apoptotic cells | 24.7%
CSc1nc(Nc2ccc(/C(C)=N/NC(=O)c3ccc([N+](=O)[O-])cc3[N+](=O)[O-])cc2)c(C#N)c(-c2ccccc2)n1 | HCT-116 | flow cytometry | concentration not given | baseline: untreated control | S phase cells | 2.68 fold
CCCC(NC(=O)C(C#N)=Cc1nc(Cl)ccc1Cl)c1ccc(OCCN2CCOCC2)cc1 (stereo not shown) | Ramos | LFQ mass spectrometry | 10 µM, 8 h |  | downregulated proteins | 1780 count

A few entries again:
SMILES | cell line | assay | setting | how to read | measurement | result
Cc1sc2ncn(CC(=O)N3CCCC3)c(=O)c2c1-c1cccc(Br)c1 | mouse cultured cortical neurons | item: intracellular Ca2+ | 50 µM, added: A23187 10 µM |  | calcium signal increase | no effect
CSc1nc(Nc2ccc(/C(C)=N/NC(=O)c3ccc([N+](=O)[O-])cc3[N+](=O)[O-])cc2)c(C#N)c(-c2ccccc2)n1 | HCT-116 | flow cytometry | concentration not given | baseline: untreated control | S phase cells | 2.68 fold
COc1cc(CNC(=O)C[C@H](C)CCC=C(C)C)ccc1OCc1cn(-c2ccc(Br)cc2)nn1 | COLO 205 | SRB | 10 µM, 48 h |  | growth percent | 113%
COc1cc2c(C=C3C(=O)Nc4ccccc43)c[nH]c2cc1C | prostate cancer subpanel of NCI-60 |  | 48 h |  | TGI | 12.9 µM
